Published values gathered from unrelated publications.
Each numbered part is a random draw from the data of one study; scales do not carry over between parts.

Set 1
Target: Interferon regulatory factor 7, full length, phosphomimetic (IRF7, Homo sapiens, UniProt Q92985, residues 1-503, S101K/S471D/S472D/S475D/S476D/S477D/S483D/S484D/S487D)
Technique: protein-binding microarray
Form: double-stranded DNA, one strand shown
Matrix: in vitro
Concentration: 250 nM
Setting: 60-bp whole probe
With: salmon DNA 0.4 mg/ml
Relative to: random background probes
Direction: higher = stronger binding
Constant ends, left off below: GCCTAGCAC … GTCTTGATTCGCTTGACGCTGCTG
Residues (chain): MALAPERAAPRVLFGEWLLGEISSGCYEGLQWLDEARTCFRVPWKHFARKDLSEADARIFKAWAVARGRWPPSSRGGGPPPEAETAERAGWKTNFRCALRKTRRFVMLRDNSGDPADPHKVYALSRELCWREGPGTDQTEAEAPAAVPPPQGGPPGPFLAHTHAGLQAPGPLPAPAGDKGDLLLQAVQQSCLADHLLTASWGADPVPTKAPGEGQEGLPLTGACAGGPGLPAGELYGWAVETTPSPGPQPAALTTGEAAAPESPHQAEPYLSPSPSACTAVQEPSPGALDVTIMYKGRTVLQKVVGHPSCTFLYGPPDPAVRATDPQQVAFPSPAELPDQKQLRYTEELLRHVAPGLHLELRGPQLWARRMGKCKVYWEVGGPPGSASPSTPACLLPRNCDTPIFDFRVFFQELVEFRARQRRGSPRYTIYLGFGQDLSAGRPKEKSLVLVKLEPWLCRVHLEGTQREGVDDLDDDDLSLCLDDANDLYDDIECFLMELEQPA
`TTAGATTACAGTCTCGATTAGTGCTAG` gave a log fluorescence of 1.51 z-score.
For `TTAGATCTCAGTATCGATAAGTGCTAG`, the log fluorescence was 0.44 z-score.
For `GACGCTTTCCTACTGCTGACGTGCTAG`, the log fluorescence was 1.39 z-score.
With `GACTAACTGGGGTTTCGAGACGTGCTA` the log fluorescence was 2.39 z-score.
The log fluorescence of `GACGGACTTGGGTTTCGGGACGTGCTA` is reported as 1.63 z-score.

Set 2
Target: Histone acetyltransferase KAT6A, both winged helices, GST fusion (KAT6A, Homo sapiens, UniProt Q92794, residues 1-181)
Technique: protein binding microarray
Form: double-stranded DNA, one strand shown
Matrix: in vitro
Concentration: not given
Setting: 8-mer, flanks averaged, mean of 2 arrays, mostly near background
Relative to: not given
Direction: higher = stronger binding
Target sequence (chain): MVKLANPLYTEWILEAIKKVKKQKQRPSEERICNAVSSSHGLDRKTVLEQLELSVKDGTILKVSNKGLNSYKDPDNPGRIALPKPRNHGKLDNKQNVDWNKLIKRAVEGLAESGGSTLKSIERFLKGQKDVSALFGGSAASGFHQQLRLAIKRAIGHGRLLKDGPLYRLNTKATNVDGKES
`GCGCCGCA` has an E-score of 0.321.
`GGGACAGA` has an E-score of 0.0204.
For `ACATGTCC`, the E-score was 0.0517.
The E-score of `TATCTACA` is reported as -0.0534.
For `ACCCGTCG`, the E-score was 0.283.
`CACTGCAC` has an E-score of -0.0917.

Mixed results
UNK zinc fingers 1-6, SBP tag: RING finger protein unkempt homolog, zinc fingers 1-6, SBP tag (UNK, Homo sapiens, UniProt Q9C0B0, residues 30-357)
Sequence of UniProt Q9C0B0 (30-357, looked up): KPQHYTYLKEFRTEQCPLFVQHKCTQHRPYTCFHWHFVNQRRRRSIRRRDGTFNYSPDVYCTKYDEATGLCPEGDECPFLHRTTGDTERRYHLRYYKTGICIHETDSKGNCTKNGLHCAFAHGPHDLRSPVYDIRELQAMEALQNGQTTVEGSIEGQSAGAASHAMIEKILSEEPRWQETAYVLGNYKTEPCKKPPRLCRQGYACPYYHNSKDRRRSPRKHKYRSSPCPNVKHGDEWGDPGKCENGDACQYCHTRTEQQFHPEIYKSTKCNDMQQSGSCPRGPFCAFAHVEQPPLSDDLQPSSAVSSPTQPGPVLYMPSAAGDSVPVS
The bound/input enrichment of `GGGAGUUCUACAGUCCGACGAUCGAGCUAAAGGAGUUAGCAUCUUUAUUUUUGUAUCAAAGAUAAAGGUUAUUUUGAAAUUAUUAGGAUUUUUACACAACUCUGAAAUCUGUUGCUUUUGUAAACAAAUUGUUUGAUCGUAGGCAACAGAGGAUUGAGCAUCA` is reported as 0.575 ratio (UNK zinc fingers 1-6, SBP tag; RNA Bind-n-Seq; RNA, in vitro; 100 nM, RNA with constant flanks, vertebrate orthologous sites, ends assumed; relative to: input RNA pool, higher = stronger binding).
For `PhoQ, residues 284 288 289 292 302 303 NSMLDC`, the fold induction was 2.4 (PhoP, residues 12 14 15 18 19 AQCLL (Escherichia coli, UniProt P23836); Sort-seq, measured: YFP reporter; E. coli; PhoQ-PhoP variant library, with: 10 µM Mg2+; relative to: high Mg2+ state, higher = stronger signaling).
The bound/input enrichment of `GGGAGUUCUACAGUCCGACGAUCGUUGUGAUCCCUUUAACAUCCACAGAAAGCUAUCAAAGAAAAACUUGCGAGCCAUUGACUUGGACGAUGCGGCUUUUCUGAGUGCCAAGUUUGGAAGGCAGUUUGUUCCUGGUUGGAAGCCAACAGAGGAUUGAGCAUCA` is reported as 0.315 ratio (UNK zinc fingers 1-6, SBP tag; RNA Bind-n-Seq; RNA, in vitro; 100 nM, RNA with constant flanks, vertebrate orthologous sites, ends assumed; relative to: input RNA pool, higher = stronger binding).

Repeated from above (mixed results):
For `PhoQ, residues 284 288 289 292 302 303 NSMLDC`, the fold induction was 2.4 (PhoP, residues 12 14 15 18 19 AQCLL (Escherichia coli, UniProt P23836); Sort-seq, measured: YFP reporter; E. coli; PhoQ-PhoP variant library, with: 10 µM Mg2+; relative to: high Mg2+ state, higher = stronger signaling).
The bound/input enrichment of `GGGAGUUCUACAGUCCGACGAUCGAGCUAAAGGAGUUAGCAUCUUUAUUUUUGUAUCAAAGAUAAAGGUUAUUUUGAAAUUAUUAGGAUUUUUACACAACUCUGAAAUCUGUUGCUUUUGUAAACAAAUUGUUUGAUCGUAGGCAACAGAGGAUUGAGCAUCA` is reported as 0.575 ratio (UNK zinc fingers 1-6, SBP tag; RNA Bind-n-Seq; RNA, in vitro; 100 nM, RNA with constant flanks, vertebrate orthologous sites, ends assumed; relative to: input RNA pool, higher = stronger binding).
